Measured values from different studies.
Numbered parts are unrelated; each lists some results of a single study. Values joined by “and” are separate records of one study, mostly repeats; a detail may differ.
Sequence of UniProt Q9UPZ9 (whole entry, looked up): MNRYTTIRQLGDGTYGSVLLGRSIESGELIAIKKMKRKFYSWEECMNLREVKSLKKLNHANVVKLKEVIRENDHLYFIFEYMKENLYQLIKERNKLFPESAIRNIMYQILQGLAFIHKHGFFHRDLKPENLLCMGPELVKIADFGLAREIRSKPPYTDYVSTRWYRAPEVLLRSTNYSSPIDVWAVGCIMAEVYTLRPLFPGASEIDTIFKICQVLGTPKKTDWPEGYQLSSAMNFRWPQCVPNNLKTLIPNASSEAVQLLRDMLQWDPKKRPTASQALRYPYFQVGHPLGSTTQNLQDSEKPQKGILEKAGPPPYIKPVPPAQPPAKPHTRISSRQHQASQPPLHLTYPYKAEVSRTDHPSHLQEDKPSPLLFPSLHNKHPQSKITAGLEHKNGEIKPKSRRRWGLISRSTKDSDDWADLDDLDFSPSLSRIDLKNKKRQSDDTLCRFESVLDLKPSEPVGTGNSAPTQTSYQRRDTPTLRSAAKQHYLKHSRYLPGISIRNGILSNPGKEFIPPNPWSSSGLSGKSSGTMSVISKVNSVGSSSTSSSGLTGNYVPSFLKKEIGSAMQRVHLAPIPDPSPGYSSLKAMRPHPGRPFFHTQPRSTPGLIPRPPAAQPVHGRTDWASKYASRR
Sequence of UniProt Q9UM73 (whole entry, looked up): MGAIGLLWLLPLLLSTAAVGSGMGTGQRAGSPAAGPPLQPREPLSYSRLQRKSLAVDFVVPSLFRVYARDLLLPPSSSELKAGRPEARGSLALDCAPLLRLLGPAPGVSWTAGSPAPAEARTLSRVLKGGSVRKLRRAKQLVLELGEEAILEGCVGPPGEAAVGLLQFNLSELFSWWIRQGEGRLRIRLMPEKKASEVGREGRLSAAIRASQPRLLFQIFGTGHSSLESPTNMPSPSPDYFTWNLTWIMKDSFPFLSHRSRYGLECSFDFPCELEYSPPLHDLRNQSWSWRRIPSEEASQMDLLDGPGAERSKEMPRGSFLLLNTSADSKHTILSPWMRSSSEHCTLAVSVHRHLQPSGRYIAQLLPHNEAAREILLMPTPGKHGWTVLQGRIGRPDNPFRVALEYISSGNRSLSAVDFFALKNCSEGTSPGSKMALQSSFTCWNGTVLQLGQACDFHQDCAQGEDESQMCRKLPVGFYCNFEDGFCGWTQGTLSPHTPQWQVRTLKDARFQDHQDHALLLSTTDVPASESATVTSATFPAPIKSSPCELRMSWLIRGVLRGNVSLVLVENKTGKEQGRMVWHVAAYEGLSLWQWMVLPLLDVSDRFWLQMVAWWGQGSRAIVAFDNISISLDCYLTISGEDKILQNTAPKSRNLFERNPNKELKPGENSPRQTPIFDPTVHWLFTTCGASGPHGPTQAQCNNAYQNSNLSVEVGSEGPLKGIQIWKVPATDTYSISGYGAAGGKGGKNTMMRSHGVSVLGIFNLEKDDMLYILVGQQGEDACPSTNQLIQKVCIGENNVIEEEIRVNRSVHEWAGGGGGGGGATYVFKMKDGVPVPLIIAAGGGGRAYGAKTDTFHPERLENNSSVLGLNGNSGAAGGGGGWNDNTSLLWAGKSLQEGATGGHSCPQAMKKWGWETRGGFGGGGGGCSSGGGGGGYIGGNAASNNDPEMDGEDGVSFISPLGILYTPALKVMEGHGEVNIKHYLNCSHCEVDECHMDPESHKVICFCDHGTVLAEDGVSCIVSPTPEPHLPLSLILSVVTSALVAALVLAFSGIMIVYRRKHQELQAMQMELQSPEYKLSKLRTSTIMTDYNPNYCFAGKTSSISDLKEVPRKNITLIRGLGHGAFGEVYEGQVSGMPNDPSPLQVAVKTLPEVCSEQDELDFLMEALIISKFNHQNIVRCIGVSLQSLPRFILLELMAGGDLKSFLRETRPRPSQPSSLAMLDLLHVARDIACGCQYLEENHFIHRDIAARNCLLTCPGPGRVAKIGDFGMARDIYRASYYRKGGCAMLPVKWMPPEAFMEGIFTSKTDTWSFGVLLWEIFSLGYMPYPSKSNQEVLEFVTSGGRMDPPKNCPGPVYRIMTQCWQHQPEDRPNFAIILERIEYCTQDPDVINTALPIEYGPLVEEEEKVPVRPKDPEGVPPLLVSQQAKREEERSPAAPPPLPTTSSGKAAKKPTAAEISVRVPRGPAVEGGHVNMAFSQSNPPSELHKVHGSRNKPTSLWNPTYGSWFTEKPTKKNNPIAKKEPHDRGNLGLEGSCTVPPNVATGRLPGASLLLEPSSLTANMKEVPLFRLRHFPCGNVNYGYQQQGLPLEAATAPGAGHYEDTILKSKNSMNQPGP
Sequence of UniProt Q52WX2 (whole entry, looked up): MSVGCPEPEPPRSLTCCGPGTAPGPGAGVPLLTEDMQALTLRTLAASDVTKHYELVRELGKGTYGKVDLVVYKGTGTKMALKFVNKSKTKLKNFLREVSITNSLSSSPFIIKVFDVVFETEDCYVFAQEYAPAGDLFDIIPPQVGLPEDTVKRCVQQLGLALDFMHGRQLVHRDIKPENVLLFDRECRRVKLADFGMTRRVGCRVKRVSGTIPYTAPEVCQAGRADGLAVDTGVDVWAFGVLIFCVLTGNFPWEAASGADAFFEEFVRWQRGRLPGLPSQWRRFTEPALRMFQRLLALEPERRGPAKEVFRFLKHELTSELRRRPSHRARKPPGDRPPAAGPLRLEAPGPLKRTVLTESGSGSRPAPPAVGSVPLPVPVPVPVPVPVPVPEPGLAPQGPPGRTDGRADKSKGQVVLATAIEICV
Sequence of UniProt P06239 (whole entry, looked up): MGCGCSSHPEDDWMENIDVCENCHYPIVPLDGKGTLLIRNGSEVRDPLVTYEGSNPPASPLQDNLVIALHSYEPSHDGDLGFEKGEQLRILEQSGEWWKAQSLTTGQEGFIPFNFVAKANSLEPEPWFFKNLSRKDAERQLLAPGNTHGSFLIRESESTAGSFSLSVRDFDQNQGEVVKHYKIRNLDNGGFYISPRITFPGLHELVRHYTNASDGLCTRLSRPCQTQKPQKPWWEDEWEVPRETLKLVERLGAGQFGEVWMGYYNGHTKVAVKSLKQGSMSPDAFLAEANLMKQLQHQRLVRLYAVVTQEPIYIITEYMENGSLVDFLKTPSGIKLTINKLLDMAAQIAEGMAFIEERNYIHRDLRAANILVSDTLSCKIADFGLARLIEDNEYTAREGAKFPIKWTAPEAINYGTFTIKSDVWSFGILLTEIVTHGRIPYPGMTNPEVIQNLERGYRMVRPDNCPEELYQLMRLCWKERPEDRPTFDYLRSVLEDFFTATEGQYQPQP
Sequence of UniProt Q8TD08 (whole entry, looked up): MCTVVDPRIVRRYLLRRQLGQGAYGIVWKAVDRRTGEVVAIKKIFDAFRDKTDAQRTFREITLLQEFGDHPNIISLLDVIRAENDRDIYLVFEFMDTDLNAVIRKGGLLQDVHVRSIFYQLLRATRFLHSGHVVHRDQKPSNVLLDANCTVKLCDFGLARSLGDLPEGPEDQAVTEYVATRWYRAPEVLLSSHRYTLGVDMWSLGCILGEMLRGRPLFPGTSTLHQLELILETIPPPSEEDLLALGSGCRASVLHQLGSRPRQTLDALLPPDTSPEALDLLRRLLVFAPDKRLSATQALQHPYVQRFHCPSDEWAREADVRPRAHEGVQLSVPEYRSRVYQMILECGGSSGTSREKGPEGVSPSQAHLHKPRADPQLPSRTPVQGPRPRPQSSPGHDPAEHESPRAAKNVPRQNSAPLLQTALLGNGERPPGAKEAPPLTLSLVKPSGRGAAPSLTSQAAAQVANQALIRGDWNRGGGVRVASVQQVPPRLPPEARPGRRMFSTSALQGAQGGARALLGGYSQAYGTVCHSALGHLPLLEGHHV
Sequence of UniProt Q9Y2H1 (whole entry, looked up): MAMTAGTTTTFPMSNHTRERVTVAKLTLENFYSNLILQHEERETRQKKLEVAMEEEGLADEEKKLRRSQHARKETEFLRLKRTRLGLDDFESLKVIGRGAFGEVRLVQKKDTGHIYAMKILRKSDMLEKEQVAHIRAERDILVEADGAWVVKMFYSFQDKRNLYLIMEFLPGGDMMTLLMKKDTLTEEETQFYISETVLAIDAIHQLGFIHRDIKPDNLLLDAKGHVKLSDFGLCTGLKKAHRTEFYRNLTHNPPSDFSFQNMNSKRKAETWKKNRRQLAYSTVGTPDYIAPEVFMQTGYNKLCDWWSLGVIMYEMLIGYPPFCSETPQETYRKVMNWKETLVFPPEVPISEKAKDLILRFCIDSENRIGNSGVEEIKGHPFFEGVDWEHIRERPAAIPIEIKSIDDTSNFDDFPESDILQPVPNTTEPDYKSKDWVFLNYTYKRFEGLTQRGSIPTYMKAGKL
Sequence of UniProt Q92772 (whole entry, looked up): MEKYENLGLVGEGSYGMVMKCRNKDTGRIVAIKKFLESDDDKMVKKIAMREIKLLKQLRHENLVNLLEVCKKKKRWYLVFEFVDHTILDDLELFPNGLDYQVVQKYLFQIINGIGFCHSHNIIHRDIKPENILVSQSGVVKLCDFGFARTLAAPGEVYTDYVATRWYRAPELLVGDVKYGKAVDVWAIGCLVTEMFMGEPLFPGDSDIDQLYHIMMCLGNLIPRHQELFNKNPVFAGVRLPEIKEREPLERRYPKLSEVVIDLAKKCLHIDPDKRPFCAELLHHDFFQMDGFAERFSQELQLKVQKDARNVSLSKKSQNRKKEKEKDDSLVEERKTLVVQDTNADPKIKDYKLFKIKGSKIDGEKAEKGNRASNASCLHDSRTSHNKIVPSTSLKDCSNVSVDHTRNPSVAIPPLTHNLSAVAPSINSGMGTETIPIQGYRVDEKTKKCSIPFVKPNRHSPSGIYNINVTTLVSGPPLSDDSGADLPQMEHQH

Block 1
Structure (SMILES): CC#CC(=O)N1CCC[C@H]1c1nc(-c2ccc(C(=O)Nc3ccccn3)cc2)c2c(N)nccn12
Effect on: enzyme activity
Mode: inhibitor
Tested at: 1 µM
target	inhibition
MARK4 (Homo sapiens, UniProt Q96L34)	6%
STK38L (Homo sapiens, UniProt Q9Y2H1)	0%
CDKL2 (Homo sapiens, UniProt Q92772)	14%
HASPIN (Homo sapiens, UniProt Q8TF76)	1%
CILK1 (Homo sapiens, UniProt Q9UPZ9)	5%
MAPK13 (Homo sapiens, UniProt O15264)	20%
CAMK1G (Homo sapiens, UniProt Q96NX5)	16%

Block 2
Target: GTPase HRas (HRAS, Homo sapiens, UniProt P01112)
Effect on: binding
Method: NanoBRET
Cell line: HEK293 (live)
Tested at: 1.046 µM
Reading: lower = stronger binding
SMILES	target engagement
CCC(=O)N1CCN(c2nc(OC[C@@H]3CCCN3C)nc3c2CCN(c2cccc4cccc(Cl)c24)C3)C[C@@H]1CC#N	108% and 120%
CC(=O)N1CCN(c2nc(OC[C@@H]3CCCN3C)nc3c2CCN(c2cccc4cccc(Cl)c24)C3)C[C@@H]1CC#N	109% and 102% and 108%
CN1CCC[C@H]1COc1nc2c(c(N3CCN(S(C)(=O)=O)[C@@H](CC#N)C3)n1)CCN(c1cccc3cccc(Cl)c13)C2	90.4% and 107% and 83.9%
CC(C)C(=O)N1CCN(c2nc(OC[C@@H]3CCCN3C)nc3c2CCN(c2cccc4cccc(Cl)c24)C3)C[C@@H]1CC#N	113% and 117% and 123%

Block 3
Target: Casein kinase II subunit alpha' (CSNK2A2, Homo sapiens, UniProt P19784)
Sequence of UniProt P19784 (whole entry, looked up): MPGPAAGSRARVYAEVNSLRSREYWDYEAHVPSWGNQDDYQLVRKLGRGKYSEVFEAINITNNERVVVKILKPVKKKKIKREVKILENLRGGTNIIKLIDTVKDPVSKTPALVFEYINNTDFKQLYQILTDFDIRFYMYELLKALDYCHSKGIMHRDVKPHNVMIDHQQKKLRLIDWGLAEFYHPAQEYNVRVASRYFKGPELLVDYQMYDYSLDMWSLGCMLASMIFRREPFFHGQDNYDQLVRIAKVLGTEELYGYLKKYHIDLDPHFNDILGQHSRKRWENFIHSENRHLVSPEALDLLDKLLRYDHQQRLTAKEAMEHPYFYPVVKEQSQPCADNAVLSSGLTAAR
Effect on: enzyme activity
Mode: inhibitor
Tested at: 0.5 µM
Baseline: control
SMILES	remaining activity
O=C(Nc1cccc(Nc2nccc(Nc3cccc(C(F)(F)F)c3)n2)c1)C1CC1	95.4%
COc1cc2ncnc(Nc3cccc(Cl)c3)c2cc1OC	92.3%
O=C1c2ccccc2-c2n[nH]c3cccc1c23	89.2%
Nc1cccc(-c2cc3c(Oc4cccc(O)c4)ncnc3[nH]2)c1	96.5%
Ic1cccc(CSc2nnc(-c3ccncc3)o2)c1	81%
CN(C)C[C@H]1CCn2c(c(C3=C(c4cn(C)c5ccccc45)C(=O)NC3=O)c3ccccc32)C1	92.4%
CN([C@@H](Cc1ccc(OS(=O)(=O)c2cccc3cnccc23)cc1)C(=O)N1CCN(c2ccccc2)CC1)S(=O)(=O)c1cccc2cnccc12	121%
C[C@@H]1CCN(C(=O)CC#N)C[C@@H]1N(C)c1ncnc2[nH]ccc12	96.6%
Cc1cc2ncc(-c3ccccc3)nc2cc1C	90.3%
Cc1cn(-c2cc(NC(=O)c3ccc(C)c(Nc4nccc(-c5cccnc5)n4)c3)cc(C(F)(F)F)c2)cn1	106%
CCN(CC)CCNC(=O)c1c(C)[nH]c(/C=C2\C(=O)Nc3ccc(Cl)cc32)c1C	64.3%
CCN(CC)C(=O)c1ccc(Nc2nc(OCC3CCCCC3)c3[nH]cnc3n2)cc1	90.9%
COc1cc2c(cc1OC)-c1[nH]nc(Nc3cccc(F)c3)c1C2	105%
N#C/C(=C\c1ccc(O)c(O)c1)C(=O)NCc1ccccc1	81.9%
CCN(CC)CCNC(=O)c1c(C)[nH]c(/C=C2\C(=O)Nc3ccc(F)cc32)c1C	92.2%
O=C(NC(NC(=S)Nc1ccc(F)c([N+](=O)[O-])c1)C(Cl)(Cl)Cl)C(c1ccccc1)c1ccccc1 (stereo not drawn)	97%
COc1cc2ncnc(Nc3ccc(O)c(Br)c3)c2cc1OC	89.2%
c1ccc(-c2cnc(Nc3ccc(OCCN4CCCC4)cc3)s2)cc1	92.1%
Cc1nc2cc3nc(-c4cccs4)cnc3cc2n1C	99%
O=c1cc(-c2cccc3c2Sc2ccccc2S3)oc(N2CCOCC2)c1	96%
O=C1C(Cl)=C(N2C(=O)CCC2=O)C(=O)c2ccccc21	100%
Cn1nc2c3c(cccc31)C(=O)c1ccccc1-2	86.6%
CCOc1nc(NC(=O)Cc2cc(OC)ccc2OC)cc(N)c1C#N	106%

Block 4
SMILES: O=C(O)[C@@H]1[C@@H](Cn2nnc3ccccc3c2=O)CC[C@H]1C(=O)c1ccc(OCCC2CCOCC2)cc1
Tested at: 1 µM
target	test	remaining binding [%]
MAPKAPK5 (Homo sapiens, UniProt Q8IW41)	cell-free assay, competition with immobilised ligand	76
IKBKE (Homo sapiens, UniProt Q14164)	cell-free assay, competition with immobilised ligand	100
NEK6 (Homo sapiens, UniProt Q9HC98)	cell-free assay, competition with immobilised ligand	100
DMPK (Homo sapiens, UniProt Q09013)	cell-free assay, competition with immobilised ligand	100
CILK1 (Homo sapiens, UniProt Q9UPZ9)	binding, competition with immobilised ligand	97
LCK (Homo sapiens, UniProt P06239)	cell-free assay, competition with immobilised ligand	93
MAPK15 (Homo sapiens, UniProt Q8TD08)	cell-free assay, competition with immobilised ligand	100
SIK1 (Homo sapiens, UniProt P57059)	competition binding	91
CDK2 (Homo sapiens, UniProt P24941)	cell-free assay, competition with immobilised ligand	100
SBK1 (Homo sapiens, UniProt Q52WX2)	cell-free assay, competition with immobilised ligand	100
Aurora kinase A (AURKA, Homo sapiens, UniProt O14965)	cell-free assay, competition with immobilised ligand	100
ALK (Homo sapiens, UniProt Q9UM73)	cell-free assay, competition with immobilised ligand	100
STK17B (Homo sapiens, UniProt O94768)	cell-free assay, competition with immobilised ligand	99
PDGFRB (Homo sapiens, UniProt P09619)	cell-free assay, competition with immobilised ligand	100
EIF2AK2 (Homo sapiens, UniProt P19525)	cell-free assay, competition with immobilised ligand	100
BMPR1B (Homo sapiens, UniProt O00238)	cell-free assay, competition with immobilised ligand	78
FLT3 (Homo sapiens, UniProt P36888, D835Y)	cell-free assay, competition with immobilised ligand	100

For quick reference, copied from above (block 3):
SMILES	remaining activity
CCOc1nc(NC(=O)Cc2cc(OC)ccc2OC)cc(N)c1C#N	106%
COc1cc2ncnc(Nc3ccc(O)c(Br)c3)c2cc1OC	89.2%
CCN(CC)CCNC(=O)c1c(C)[nH]c(/C=C2\C(=O)Nc3ccc(F)cc32)c1C	92.2%
O=c1cc(-c2cccc3c2Sc2ccccc2S3)oc(N2CCOCC2)c1	96%
